Measured values gathered from unrelated publications.
Protocols differ between the studies behind these lines.
rep main protease: Replicase polyprotein 1ab, main protease (rep, Severe acute respiratory syndrome coronavirus 2, UniProt P0DTD1)
Polyprotein P1234 nsP2: Polyprotein P1234, nsP2 (Chikungunya virus, UniProt Q8JUX6)

For C[C@](C(=O)NC1CCOCC1)(c1cncnc1)N(C(=O)[C@H](F)Cl)c1ccc(OC(F)(F)Cl)cc1, the inhibition was 44.8% (rep main protease; enzyme activity, inhibitor; 14 nM).
CSCC[C@H](NC(=O)[C@H](CCN)NC(=O)[C@@H](NC(=O)[C@H](Cc1c[nH]c2ccccc12)NC(=O)[C@H](CCCNC(=N)N)NC(=O)[C@@H](N)CCNc1ccc([N+](=O)[O-])cc1[N+](=O)[O-])[C@@H](C)O)C(=O)N[C@@H](CC(C)C)C(N)=O has an inhibition of over 90% (Botulinum neurotoxin type A (Clostridium botulinum, UniProt P0DPI0); enzyme activity, inhibitor; concentration not given).
For CS(=O)(=O)NCC1CCOC2(CCN(C(=O)C3(c4ccccc4)CCCC3)CC2)C1 (stereo not shown), the inhibition was 85% (Polyprotein P1234 nsP2; ATPase activity, ADP-Glo; 200 µM).
The inhibition of O=C1c2sc(-c3ccc(N4CCC(F)C4)nc3F)nc2CCN1c1cccnc1 (stereo not shown) is reported as -11% (Grin1 (Rattus norvegicus, UniProt P35439); ligand displacement, radioligand; 1 µM).
For CN(C)CC(=O)Nc1ccc2[nH]c(=O)c3ccccc3c2c1, inhibition read “no effect” (Nucleoprotein (Severe acute respiratory syndrome coronavirus 2, UniProt P0DTC9); nucleoprotein-RNA interaction, HTRF; 50 µM).
O=C(O)c1ccc(Nc2cc(Nc3ccc(C(=O)O)cc3)c3c(=O)c(Nc4ccc(C(=O)O)cc4)c(-c4ccc(Nc5ccc(C(=O)O)cc5)c(Nc5ccc(C(=O)O)cc5)c4)oc3c2)cc1 — result for inhibition: “inhibited” (Spike glycoprotein (Severe acute respiratory syndrome coronavirus 2, UniProt P0DTC2); spike protein activity; SARS-CoV-2; concentration not given).
With CC(C)C[C@H](NC(=O)[C@@H](NC(=O)[C@@H](CCCNC(=N)N)NC(=O)[C@@H](CCCNC(=N)N)NC(=O)[C@@H](CCCNC(=N)N)NC(=O)[C@@H](CCCNC(=N)N)NC(=O)[C@@H](CCCNC(=N)N)NC(=O)[C@@H](CCCNC(=N)N)NC(=O)[C@@H](CCCNC(=N)N)NC(=O)[C@@H](CCCNC(=N)N)NC(=O)[C@H](N)CCCNC(=N)N)C(C)C)C(=O)N[C@@H](CCCNC(=N)N)C(=O)O the inhibition was 33% (Lethal factor (Bacillus anthracis, UniProt P15917); enzyme activity, inhibitor; 0.02 µM).
CS(=O)(=O)NCC1CCOC2(CCN(C(=O)C3(c4ccccc4)CCC3)CC2)C1 (stereo not shown) has an inhibition of under 10% (Polyprotein P1234 nsP2; ATPase activity, ADP-Glo; 200 µM).
O=C(NC1CCC(F)(F)CC1)C(c1cncnc1)N(C(=O)C(F)Cl)c1ccc(-c2cncs2)cc1 (stereo not shown) gave an inhibition of 101% (rep main protease; enzyme activity, inhibitor; 0.926 µM).
CS(=O)(=O)NCC1CCOC2(CCN(C(=O)C3(c4ccccc4)CCCCC3)CC2)C1 (stereo not shown) gave an inhibition of 80% (Polyprotein P1234 nsP2; ATPase activity, ADP-Glo; 200 µM).
For O=c1c(OP(=O)(O)O)c(-c2ccc(OP(=O)(O)O)c(OP(=O)(O)O)c2)oc2cc(OP(=O)(O)O)cc(OP(=O)(O)O)c12, inhibition read “inhibited” (Spike glycoprotein, receptor-binding domain (MERS-CoV, UniProt K9N5Q8); spike protein activity; concentration not given).
For C[C@H](NCc1ccc(-c2ccc(C(F)(F)F)cc2)cc1)C(N)=O, the inhibition was 2% (strychnine-sensitive glycine receptor, rat; binding, radioligand binding; biochemical; 1 µM, together with: [3H]strychnine 10 nM).
For COc1ccc(F)cc1S(=O)(=O)Nc1cnc2c(c1)C(=O)NCCO2, the inhibition was 18% (strychnine-sensitive glycine receptor; radioligand binding; 10 µM).
O=C(O[C@@H]1Cc2c(O)cc(O)cc2O[C@@H]1c1cc(O)c(O)c(O)c1)c1cc(O)c(O)c(O)c1 — result for inhibition: “no inhibition” (Replicase polyprotein 1a, main protease (Severe acute respiratory syndrome-related coronavirus, UniProt P0C6U8); 3CL protease activity; concentration not given).
Cn1ccc2cc(-n3c(=O)[nH]c4sc5c(c4c3=O)CCCC5)ccc21 gave an inhibition of 6% (CHRNA1/CHRNG/CHRND (Homo sapiens, UniProt P02708+P07510+Q07001); 10 µM).
COC1C(O)C(COP(=O)(O)OP(=O)(O)OP(=O)(O)O)OC1n1cnc2c(=O)[nH]c(N)nc21 (stereo not shown) has an inhibition of 75% (mRNA-decapping protein OPG122 (OPG122, Vaccinia virus, UniProt P04312); 100 µM).
For CC[C@H](C)[C@H](NC(=O)[C@H](Cc1c[nH]cn1)NC(=O)[C@H](Cc1ccc(O)cc1)NC(=O)[C@H](CCCCN)NC(=O)[C@@H]1CSSC[C@@H]2NC(=O)[C@H](CCC(=O)O)NC(=O)[C@H](CC(=O)O)NC(=O)[C@H](C)NC(=O)CNC(=O)[C@H](Cc3ccc(O)cc3)NC(=O)[C@H](CCCCN)NC(=O)[C@@H]3CSSC[C@H](NC(=O)[C@H](C(C)C)NC(=O)[C@H](Cc4ccc(O)cc4)NC(=O)CNC(=O)[C@H](CCCCN)NC(=O)[C@H](CSSC[C@H](NC(=O)[C@@H](N)CO)C(=O)N[C@@H](CCCCN)C(=O)N[C@@H](C(C)C)C(=O)N4CCC[C@H]4C(=O)N[C@@H](Cc4ccccc4)C(=O)N[C@@H](CC(N)=O)C(=O)N[C@@H](CCC(=O)O)C(=O)N3)NC2=O)C(=O)N[C@@H](CO)C(=O)N[C@@H](CCCCN)C(=O)N[C@@H](CCCNC(=N)N)C(=O)N[C@@H](CC(=O)O)C(=O)NCC(=O)N[C@@H](Cc2c[nH]c3ccccc23)C(=O)N1)C(=O)N[C@@H](CC(N)=O)C(=O)O, the inhibition was 15.2% (SCN9A (Homo sapiens, UniProt Q15858); ion current, inhibitor, patch clamp; HEK293; 3.3 µM).
With CC1=CC(=C(c2cc(C)c(O)c(C(=O)O)c2)c2c(Cl)ccc(S(=O)(=O)O)c2Cl)C=C(C(=O)O)C1=O the inhibition was over 50% (Ba71V-97, DNA complex (African swine fever virus, UniProt P42494); enzyme activity; 100 µM).
For CC(C)C[C@H](NC(=O)[C@H](CC(=O)O)NC(=O)[C@H](CCC(=O)O)NC(=O)[C@H](C)NC(=O)[C@H](CCC(=O)O)NC(=O)[C@H](Cc1c[nH]cn1)NC(=O)[C@H](CC(N)=O)NC(=O)[C@H](Cc1ccccc1)NC(=O)[C@H](Cc1ccccc1)NC(=O)[C@H](CC(=O)O)NC(=O)[C@H](CC(C)C)NC(=O)[C@H](Cc1ccccc1)NC(=O)[C@@H](N)[C@@H](C)O)C(=O)N[C@@H](Cc1ccccc1)C(=O)N[C@@H](CSCc1ccc(S(=O)(=O)F)cc1)C(=O)O, the inhibition was 88% (Spike glycoprotein, Omicron BA.2 RBD; ACE2 (Severe acute respiratory syndrome coronavirus 2, UniProt P0DTC2); RBD binding to human ACE2; 400 nM, SARS-CoV-2 Omicron BA.2 RBD).

Some of these lines once more:
CS(=O)(=O)NCC1CCOC2(CCN(C(=O)C3(c4ccccc4)CCC3)CC2)C1 (stereo not shown) has an inhibition of under 10% (Polyprotein P1234 nsP2; ATPase activity, ADP-Glo; 200 µM).
